Results of several laboratories.
Each line is one published result; not all experiments were run side by side. Several values in a cell are separate wells, animals, samples, runs or records. ± marks the error that the study gave.

`CCN(Cc1ccccc1)C(=O)CCc1nc(CN2CCN(C(=O)Cc3ccc(OC)c(OC)c3)CC2)no1`: “time to first slip” 0.85 ± 0.07 min (rotarod test; mouse, CCI neuropathic pain model; 1 mg/kg).
The peptide remaining of `CC(C)[C@@H]1NC(=O)CNC(=O)[C@H](CC(N)=O)NC(=O)[C@H](CCCNC(=N)N)NC(=O)[C@H](Cc2ccc(O)cc2)NC(=O)[C@H](C(C)C)NC(=O)[C@@H](NC(=O)[C@@H](NC(=O)[C@H](CC(N)=O)NC(=O)[C@H](Cc2c[nH]c3ccccc23)NC(=O)[C@H](C)NC(=O)[C@H](Cc2ccccc2)NC(=O)CNC(=O)[C@H](CCCCN)NC(=O)[C@H](Cc2ccccc2)NC(=O)[C@H](Cc2ccccc2)NC(=O)[C@H](CCCCN)NC(=O)OCC2c3ccccc3-c3ccccc32)C(C)C)CSSC[C@@H](C(=O)N[C@@H](Cc2c[nH]cn2)C(=O)N[C@@H](CCCNC(=N)N)C(=O)N[C@@H](CCCNC(=N)N)C(=O)N[C@@H](C)C(=O)N[C@@H](CC(N)=O)C(N)=O)NC(=O)[C@H](C(C)C)NC(=O)[C@H](CCCNC(=N)N)NC1=O` is reported as 43.5% and 51.3% and 47.4% (HPLC; mouse kidney homogenate 50 mg/mL; 8.00 h, 37 °C).
`O=C1NC2(CC2)COc2ncc(F)cc2[C@H]2COCCN2c2ccn3ncc1c3n2` — result for “organ-to-brain weight ratio”: 418 ± 48.7% (Sprague-Dawley rat, female, liver; oral, 5 mg/kg/day, 4 weeks dosing, end of recovery).
`CC(C)C[C@@H](NC(=O)[C@@H](CCCNC(=N)N)NC(=O)[C@@H](Cc1c[nH]cn1)NC(=O)[C@@H](Cc1c[nH]c2ccccc12)NC(=O)[C@@H](Cc1c[nH]cn1)NC(=O)[C@@H](Cc1ccccc1)NC(=O)[C@H](NC(=O)[C@@H](Cc1ccc(O)cc1)NC(=O)CNC(=O)CNC(=O)CCOCCOCCOCCNC(=O)CN1CCN(CC(=O)O)CCN(CC(=O)O)CC1)[C@H](C)O)C(=O)N[C@H](CC(N)=O)C(=O)N1CCC[C@@H]1C(=O)O` [gallium-68 labelled] has a tissue ratio of 7.26 ± 1.07 (C57BL/6 mice, male; intravenous, 1.85 MBq, 120 min; relative to: tumour over muscle).
With `CCCCCCCCCCCCCCCC(=O)N[C@@H](CCC(=O)NCCOCCOCCC(=O)NCCOCCOCCC(=O)NCCCC[C@H](NC(=O)[C@H](CC(=O)O)NC(=O)[C@H](CC(C)C)NC(=O)[C@H](Cc1ccc(O)cc1)NC(=O)[C@H](CCCCN)NC(=O)[C@H](CO)NC(=O)[C@H](Cc1ccc(O)cc1)NC(=O)[C@H](CC(=O)O)NC(=O)[C@H](CO)NC(=O)[C@@H](NC(=O)[C@H](Cc1ccccc1)NC(=O)[C@@H](NC(=O)CNC(=O)[C@H](CCC(N)=O)NC(=O)[C@@H](CO)NC(=O)[C@@H](N)Cc1c[nH]cn1)[C@@H](C)O)[C@@H](C)O)C(=O)N[C@@H](CCCNC(=N)N)C(=O)N[C@@H](CCCNC(=N)N)C(=O)N[C@@H](C)C(=O)N[C@@H](CCC(N)=O)C(=O)N[C@@H](CC(=O)O)C(=O)N[C@@H](Cc1ccccc1)C(=O)N[C@H](C(=O)N[C@@H](CCC(N)=O)C(=O)N[C@@H](Cc1c[nH]c2ccccc12)C(=O)N[C@@H](CC(C)C)C(=O)N[C@@H](CC(C)C)C(=O)N[C@@H](CC(N)=O)C(=O)N[C@H](C(=O)NCC(=O)NCC(=O)N1CCC[C@H]1C(=O)N[C@@H](CO)C(=O)N[C@@H](CO)C(=O)NCC(=O)N[C@@H](C)C(=O)N1CCC[C@H]1C(=O)N1CCC[C@H]1C(=O)N1CCC[C@H]1C(=O)N[C@@H](CO)C(N)=O)[C@@H](C)O)C(C)C)C(=O)O` the AUC(0-inf) was 290 ng·h/mL (rhesus monkey, plasma; intravenous, 15.3 µg/kg, single dose).
`Cc1ccccc1-c1ccc(-c2nc(-c3ccc(CN(C)CCCC(=O)O)c([18F])c3)no2)cc1C(F)(F)F` has a tracer uptake of 3.69 %ID/g (rat, lung; 5 min).
Under “plasma HCO3- level”, `C=C/C=C/C[C@@H](C)[C@@H](O)[C@H]1C(=O)N[C@@H](CC)C(=O)N(C)CC(=O)N(C)[C@@H](CC(C)C)C(=O)N[C@@H](C(C)C)C(=O)N(C)[C@@H](CC(C)C)C(=O)N[C@@H](C)C(=O)N[C@H](C)C(=O)N(C)[C@@H](CC(C)C)C(=O)N(C)[C@@H](CC(C)C)C(=O)N(C)[C@@H](C(C)C)C(=O)N1C` is recorded as 25.3 ± 1.1 mmol/L (Wistar Kyoto rat, male, plasma; ip, 0.5 mg/kg/day, day 28, at sacrifice).
The Vdss of `CCCC[C@@H]1NC(=O)[C@H](Cc2ccc(O)cc2)NC(=O)[C@@H]2CCCN2C(=O)[C@H](CC(=O)O)NC(=O)[C@H](C)NC(=O)[C@H](Cc2ccccc2)NC(=O)[C@@H]2CSCCC(=O)N3CN(CN(C3)C(=O)CCSC[C@@H](C(=O)N[C@@H](C)C(N)=O)NC1=O)C(=O)CCSC[C@H](NC(C)=O)C(=O)N[C@@H](CC(C)(C)C)C(=O)N1CCC[C@H]1C(=O)N[C@@H](CCC(=O)O)C(=O)N[C@H](CCCCNC(=O)CCc1cn(CCOCCOCCOCCN(CCOCCOCCOCCC(=O)N[C@H]3CSCCC(=O)N4CN5CN(C4)C(=O)CCSC[C@H](NC(=O)[C@@H](CC(=O)O)NC(=O)[C@H](Cc4cccc6ccccc46)NC(=O)[C@@H]4CCCN4C3=O)C(=O)N[C@@H](CCSC)C(=O)N[C@@H](CCCCNC(=N)N)C(=O)N[C@@H](CC(=O)O)C(=O)N[C@@H](Cc3c[nH]c4ccccc34)C(=O)N[C@@H](CO)C(=O)N[C@@H]([C@@H](C)O)C(=O)N3CCC[C@H]3C(=O)N3C[C@H](O)C[C@H]3C(=O)N[C@@H](Cc3c[nH]c4ccccc34)C(=O)N[C@H](C(N)=O)CSCCC5=O)CCOCCOCCOCCn3cc(CCC(=O)NCCCC[C@H]4NC(=O)[C@H](CCC(=O)O)NC(=O)[C@@H]5CCCN5C(=O)[C@H](CC(C)(C)C)NC(=O)[C@@H](NC(C)=O)CSCCC(=O)N5CN6CN(C5)C(=O)CCSC[C@H](NC(=O)[C@H](Cc5ccc(O)cc5)NC(=O)[C@@H]5CCCN5C4=O)C(=O)N[C@@H](Cc4ccccc4)C(=O)N[C@@H](C)C(=O)N[C@@H](CC(=O)O)C(=O)N4CCC[C@H]4C(=O)N[C@@H](Cc4ccc(O)cc4)C(=O)N[C@@H](CCCC)C(=O)N[C@H](C(=O)N[C@@H](C)C(N)=O)CSCCC6=O)nn3)nn1)C(=O)N1CCC[C@H]1C(=O)N[C@@H](Cc1ccc(O)cc1)C(=O)N2` is reported as 2.3 ± 0.6 L/kg (CD-1 mouse).
For `CN1Cc2cc(Cl)ccc2-n2c(nnc2C2CCN(c3cccc([18F])n3)CC2)C1`, the tissue uptake was 6.54 ± 2.97 %ID/g (C57BL/6 mouse male, small intestine; intravenous, 3.7 MBq, 60 min).
The haematocrit of `O=C(c1cc(Cc2n[nH]c(=O)c3ccccc23)ccc1F)N1CC(CNC2CC2)C1` is reported as 49.6 ± 3.7% (Wistar Han rat, male, blood; oral, 30 mg/kg daily, 4 weeks).
`N=C(N)NCCC[C@H](NC(=O)[C@H](CCCNC(=N)N)NC(=O)[C@H](CCCNC(=N)N)NC(=O)[C@H](CCC(N)=O)NC(=O)[C@H](CCCNC(=N)N)NC(=O)[C@H](CCCNC(=N)N)NC(=O)[C@H](CCCCN)NC(=O)[C@H](CCCCN)NC(=O)[C@H](CCCNC(=N)N)NC(=O)CNC(=O)[C@H](Cc1ccc(O)cc1)NC(=O)[C@H](Cc1ccccc1)NC(=O)[C@H](Cc1ccccc1)NC(=O)[C@H](Cc1ccccc1)NC(=O)Cc1ccc2ccccc2c1)C(=O)O` gave a health score of 5 (C57BL/6 mice; intraperitoneal, 10 mg/kg, 12 h; direction not given).
For `Cc1n[nH]c(C)c1CCCOc1cc(OCCCCCCNCCOCCOCCn2cc(CNc3ccc(C(=O)O)cc3)nn2)cc(C(=O)O)c1`, “CSF to plasma ratio” read 1.4 and 1.6 (male Sprague Dawley rat, CSF and plasma; subcutaneous, 15 µmol/kg, 10 min).
Under “elimination rate constant”, `CC[C@H](C)[C@H](NC(=O)[C@H](Cc1ccc(O)cc1)NC(=O)[C@@H](NC(=O)[C@H](CCCNC(=N)N)NC(=O)[C@@H](N)CC(=O)O)C(C)C)C(=O)N[C@@H](Cc1c[nH]cn1)C(=O)N1CCC[C@H]1C(=O)O` is recorded as 0.03 min⁻¹ (Beagle dog, plasma; subcutaneous, 10 mg/kg/day, day 27).

Repeated from above:
`Cc1ccccc1-c1ccc(-c2nc(-c3ccc(CN(C)CCCC(=O)O)c([18F])c3)no2)cc1C(F)(F)F` has a tracer uptake of 3.69 %ID/g (rat, lung; 5 min).
